Experimental data from different studies.
Every numbered part comes from another study and shows a few of its results, in no order. Substitutions count along the parent as printed.

Sample 1
Target: CCND2, cyclin fold, Cln2 fusion (human)
Method: yeast growth competition, sequencing
Medium: yeast
Notes: weak parent motif
Relative to: not given
Reading: higher = stronger binding
Starting sequence: PKMYT1 docking peptide (human); SFEPRNLLSLFED; partner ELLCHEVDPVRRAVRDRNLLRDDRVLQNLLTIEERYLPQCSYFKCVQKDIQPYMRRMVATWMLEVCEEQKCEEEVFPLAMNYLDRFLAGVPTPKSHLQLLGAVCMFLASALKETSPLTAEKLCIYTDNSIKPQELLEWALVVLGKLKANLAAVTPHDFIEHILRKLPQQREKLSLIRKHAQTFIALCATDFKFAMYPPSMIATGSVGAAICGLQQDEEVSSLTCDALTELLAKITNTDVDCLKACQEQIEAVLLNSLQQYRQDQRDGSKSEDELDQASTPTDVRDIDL
`SQEPRNLLSLFED [F2Q]` — result for “normalised enrichment score”: -0.0821.
Under “normalised enrichment score”, `SFEPRNLLSLFET [D13T]` is recorded as -0.0335.
`SFEPRQLLSLFED [N6Q]`: “normalised enrichment score” 0.16.
For `SFERRNLLSLFED [P4R]`, “normalised enrichment score” read 0.327.
For `SFEPRNLQSLFED [L8Q]`, “normalised enrichment score” read -0.177.
Under “normalised enrichment score”, `SFEPTNLLSLFED [R5T]` is recorded as 0.173.
For `SFGPRNLLSLFED [E3G]`, “normalised enrichment score” read -0.167.
`SFEPRPLLSLFED [N6P]` — result for “normalised enrichment score”: 0.189.

Sample 2
Target: OGT, full length, His-tagged (human)
Method: phage display, sequencing
Medium: in vitro
Tested at: 1 µg OGT
Notes: single substitutions, 15-mer displayed peptide, unchanged parent 16.7
Relative to: input library
Reading: higher = stronger binding
Starting sequence: peptide; NSEYMPQYQIIFAHQ
For `NSEYMPQYQPIFAHQ [I10P]`, the fold enrichment was 0.553 fold.
`NSEYMPQYQIIFAHS [Q15S]` gave a fold enrichment of 15.7 fold.
`NSYYMPQYQIIFAHQ [E3Y]` gave a fold enrichment of 12.6 fold.
For `NSEMMPQYQIIFAHQ [Y4M]`, the fold enrichment was 0.836 fold.
For `NSEYMPQYQIIFEHQ [A13E]`, the fold enrichment was 18.5 fold.
`NSEYMSQYQIIFAHQ [P6S]` gave a fold enrichment of 1.48 fold.
`NSEYMPQYYIIFAHQ [Q9Y]` has a fold enrichment of 3.53 fold.
`NSEYMYQYQIIFAHQ [P6Y]` has a fold enrichment of 2.09 fold.
With `NSEYIPQYQIIFAHQ [M5I]` the fold enrichment was 6.72 fold.
`ESEYMPQYQIIFAHQ [N1E]` gave a fold enrichment of 18.8 fold.
`NSEYMPQTQIIFAHQ [Y8T]` gave a fold enrichment of 0.371 fold.

Sample 3
Target: Sal-like protein 4, full length isoform B (SALL4, Homo sapiens, UniProt Q9UJQ4-2, residues 1-616)
Method: universal PBM
Form: double-stranded DNA, one strand shown
Medium: in vitro
Tested at: not given
Notes: 8-mer, flanks averaged, mean of replicates
Reading: higher = stronger binding
`GACCTTAC` gave an E-score of -0.098.
`GACAACAA` has an E-score of 0.117.
The E-score of `CCTGAACA` is reported as -0.0195.
`ATATCGTA` gave an E-score of 0.266.
The E-score of `CAAGGAAA` is reported as 0.0225.
`ACCTAGAT` gave an E-score of -0.0657.
With `CGAACATC` the E-score was -0.00358.
`TCATGGGA` gave an E-score of -0.0463.
The E-score of `ACTACCAC` is reported as 0.0583.
`ATCACACG` has an E-score of 0.127.
`GAAAGCGC` has an E-score of -0.162.

Single results of other studies
The fold induction of `PhoQ, residues 284 288 289 292 302 303 SACGEM` is reported as 8.45 (PhoP, residues 12 14 15 18 19 LHTVM (Escherichia coli, UniProt P23836); Sort-seq, item: YFP reporter; E. coli; PhoQ-PhoP variant library, with: 10 µM Mg2+; relative to: high Mg2+ state, higher = stronger signaling).

Excerpt of the above (sample 3):
With `CGAACATC` the E-score was -0.00358.
`TCATGGGA` gave an E-score of -0.0463.
The E-score of `CCTGAACA` is reported as -0.0195.
